Measured values from different studies.
Protocols differ between the studies behind these lines. “And” joins repeats or separate records; there may be more than shown. Numbers after ± are the reported error.

SMILES | test | system | setting | how to read | quantity | result
C[C@@H]1CCC[C@H](n2cnc(-c3cc(Cl)ccc3-n3cc(Cl)nn3)cc2=O)c2cc(ccn2)-c2c(cnn2C(F)F)NC1=O | – | rat plasma | IC2.5× aPTT, STA-PTT reagent | – | concentration for aPTT prolongation | > 40 µM
Cc1oncc1C(=O)Nc1ccc(C(F)(F)F)cc1 | item: dihydroorotate | female CD-1 mice, pooled urine | oral, 10 mg/kg daily, 8-24 h after dose 10, 10-day dosing | – | DHO concentration | 5480 ± 827 µM
NCC(=O)Nc1cncc(-c2nn3c(=O)cc(N4CCNCC4)nc3s2)c1 | ADP-induced platelet aggregation, light transmission aggregometry | human stable CAD patients on aspirin, platelets ex vivo | 0.04 mg/kg, 5 min post dose, together with: 20 µM ADP | baseline: placebo difference | inhibition of platelet aggregation | 14%
N#Cc1ccn2c(-c3ccncc3)c(-c3ccc(F)cc3)nc2c1 | kinase binding, competitor, MIB/MS competition, item: SAK1 | Candida albicans cell lysate | 1 µM | baseline: DMSO | log2 fold change | 0.245
N#Cc1ccc2c(c1)[C@H]1CCCN(C(=O)c3ccc4[nH]cnc4c3)[C@H]1C2 | item: androstenedione | human male, Phase II trial | oral, 20 mg once daily, HPA axis, mean | – | change from baseline | 3.03 nmol/L
C[C@@H](NC(=O)N1C(=O)[C@H](Cc2ccnc(N)c2)[C@H]1C(=O)O)C1CCCCC1 | – | human | iv infusion, 0.3 mg/kg/h, 24 h | – | aPTT Emax | 49.5 s
Cc1sc2c(c1C)C(c1ccc(Cl)cc1)=N[C@@H](CC(=O)NCCCCCCCCNC(=O)COc1cccc3c1C(=O)N(C1CCC(=O)NC1=O)C3=O)c1nnc(C)n1-2 (stereo partly shown) | flow cytometry | 4T1 tumour-bearing mice, lymph nodes | dose not given | – | CD80+ CD86+ dendritic cells | 31.8% and 33.4% and 30.2% and 30%
COc1cccc2c1C(=O)c1c(O)c3c(c(O)c1C2=O)C[C@@](O)(C(=O)CO)C[C@@H]3O[C@H]1C[C@H](N)[C@H](O)[C@H](C)O1 | item: metastatic burden and inflammation | metastases, lung, MDA-MB-231-Luc-GFP, NSG mice xenograft, lung | 3 mg/kg, 1 week after three weekly doses | direction not given | histopathological score | 3
O=P(O)(O)C(Cl)(Cl)P(=O)(O)O | immunostaining, item: F4/80 | mouse, sham, meningeal perivascular | 23000 µg/mL | – | macrophage density | 6.42 cells/mm²
O=C1Nc2cc3[nH]nc(-c4ccncc4)c3cc2CN1Cc1ccccc1 | RECIST v1.1 | human, relapsed or refractory advanced solid tumours | intravenous, 7.2 mg/kg | – | complete response, best response | 0%
CCCCCN1C[C@H](O)[C@@H](O)[C@H](O)[C@@H]1CO | – | Hexb-/- mouse, liver | 300 mg/kg/day, unit not given | baseline: 30 mg/kg/day | increased sphingolipid species | 0
Cc1ccc([C@@H]2O[C@H](CO)[C@@H](O)[C@H](O)[C@H]2O)cc1Cc1ccc(-c2ccc(F)cc2)s1 | – | Japanese type 2 diabetes patients | 400 mg, day 16 | baseline: day 0 | change in 24-h mean serum insulin | -2.9 µU/mL
N#Cc1ccc2c(-c3ccncc3)c(-c3ccc(F)cc3)nn2c1 | kinase binding, competitor, MIB/MS competition, item: KSP1 | Candida albicans cell lysate | 100 nM | baseline: DMSO | log2 fold change | 0.0623
CCCCC1(CCCC)CN(c2ccccc2)c2cc(SC)c(OCC(=O)N[C@@H](C(=O)NCC(=O)O)c3ccccc3)cc2S(=O)(=O)C1 | item: 7α-hydroxy-4-cholesten-3-one | human, plasma | 2.5 mg once daily, day 14 | – | plasma C4 | 34.5 ng/mL
CC(C)NCC(O)c1ccc(O)c(O)c1 (stereo not shown) | – | ventricular cardiomyocytes, C57BL/6 mouse | dose not given, 0.248 s | – | sarcomere length | 1.6 µm
Cc1n[nH]c2ccc(-c3cc(OC[C@@H](N)Cc4ccccc4)cnc3-c3ccoc3)cc12 | kinase binding, competitor, MIB/MS competition, item: PBS2 | Candida albicans cell lysate | 100 nM | baseline: DMSO | log2 fold change | -0.000679
CN[C@@H]1COc2c(S(=O)(=O)NC(=O)Nc3c4c(cc5c3CCC5)CCC4)cnn2C1 | item: IL-18 | human participants, whole blood ex vivo | 1800 mg single dose, 48 h, IL-18, circulating, adjusted for, together with: LPS/ATP | baseline: baseline | inhibition | 69.6%
C[C@H](Oc1ccc(Br)cc1-c1ccon1)C(=O)O | muscle velocity recovery cycle | human, tibialis anterior muscle | 200 mg once daily, last response peak at 15 Hz, multiple ascending dose | – | difference from placebo | 7.28%
O=S(=O)(NCCNC/C=C/c1ccc(Br)cc1)c1cccc2cnccc12 | – | mouse zygotes | 20 µM, 72 h post-hCG | – | embryos reaching blastocyst | 0%
O=C(O)CNC(=O)Cc1ccccc1 | – | ventricular cardiomyocytes, C57BL/6 mouse | dose not given, 0.192 s | – | sarcomere length | 1.62 µm
C[C@H]1O[C@@H](O[C@H]2CC[C@@]3(C)[C@@H](CC[C@]4(C)[C@@H]3C=C[C@]35OC[C@@]6(CCC(C)(C)C[C@H]63)[C@@H](O)C[C@]54C)[C@]2(C)CO)[C@H](O)[C@@H](O[C@@H]2O[C@H](CO)[C@@H](O)[C@H](O)[C@H]2O)[C@H]1O | Western blot, item: Mtor | mice, normal control diet, liver | dose not given, high dose, unit not given | baseline: β-actin | protein level | 1.45 and 1.13 and 0.49
O=C(Nc1cccnn1)N1CCC(=Cc2cccc(Oc3ccc(C(F)(F)F)cn3)c2)CC1 | mechanical and thermal hyperalgesia | mouse CFA arthritis | oral, 2 h | baseline: vehicle | effective dose | 3 to 30 mg/kg

SMILES | test | system | setting | how to read | quantity | result
CO[C@H]1CC[C@H](N2C(=O)CNc3ncc(-c4ccc(C(C)(C)O)nc4)nc32)CC1 | flow cytometry | stimulated T cells, human, blood | 60 mg single dose, 5 h, mean | baseline: baseline | p4EBP1 change from baseline | -33.3%
OC(CCN1CCCCC1)(c1ccccc1)C1CC2C=CC1C2 (stereo not shown) | resting-state EEG | healthy elderly humans | oral, 2 mg, eyes closed, LS mean | baseline: baseline | change, Delta EEG power, in O2-Pz | 22%
C[C@H]1C[C@H]2CSC(N)=N[C@@]2(c2nc(NC(=O)c3ccc(OC(F)F)cn3)cs2)CO1 | item: total Aβ | healthy adults, plasma | 50 mg once daily, day 14 | baseline: placebo | percent change from baseline | -61.8%
COc1ccc(-c2cncc(N[C@@H](C)c3cccc(NC(=O)c4cncc(C)c4)c3)n2)cc1OC | item: rno-miR-141-3p | rat SU5416/hypoxia model, lung | dose not given | baseline: SU5416/hypoxia vehicle | fold change | 1.85
COc1ncc(-c2nc3c(n2C(C)C)[C@H](c2ccc(Cl)cc2)N(c2cc(Cl)cn(C)c2=O)C3=O)c(OC)n1 | antileukemic activity, item: treatment failure, indeterminate cause | human, acute myeloid leukaemia | dose not given, all patients, IWG criteria | – | best overall response | 8.8%
N#Cc1ccc2c(c1)[C@H]1CCCN(C(=O)c3ccc4[nH]cnc4c3)[C@H]1C2 | – | human, plasma | 80 mg, day 15, 360 h | baseline: placebo and baseline | change in HOMA-IR | -21.2%
CC(=O)NCC(=O)NCC(=O)N[C@H](C(=O)N[C@@H](Cc1ccc(O)cc1)C(=O)N[C@@H](CO)C(=O)N[C@H]1CSSC[C@@H](C(=O)N[C@@H](CCCNC(=N)N)C(=O)N2CCC[C@H]2C(=O)N[C@@H](CCC(N)=O)C(=O)N[C@@H](CCCNC(=N)N)C(=O)NCC(=O)NCCC(=O)N[C@@H](CCCCNC(=O)CN(CC(=O)NCCCC[C@H](NC(=O)CCNC(=O)CNC(=O)[C@H](CCCNC(=N)N)NC(=O)[C@H](CCC(N)=O)NC(=O)[C@@H]2CCCN2C(=O)[C@H](CCCNC(=N)N)NC(=O)[C@@H]2CSSC[C@H](NC(=O)[C@H](CO)NC(=O)[C@H](Cc3ccc(O)cc3)NC(=O)[C@@H](NC(=O)CNC(=O)CNC(C)=O)[C@@H](C)O)C(=O)N[C@@H](Cc3c[nH]cn3)C(=O)N[C@@H](Cc3ccccc3)C(=O)NCC(=O)N[C@@H](C)C(=O)N[C@@H](CC(C)C)C(=O)N[C@@H]([C@@H](C)O)C(=O)N[C@@H](Cc3c[nH]c4ccccc34)C(=O)N[C@@H](C(C)C)C(=O)N2)C(N)=O)C(=O)CCN)C(N)=O)NC(=O)[C@H](C(C)C)NC(=O)[C@H](Cc2c[nH]c3ccccc23)NC(=O)[C@H]([C@@H](C)O)NC(=O)[C@H](CC(C)C)NC(=O)[C@H](C)NC(=O)CNC(=O)[C@H](Cc2ccccc2)NC(=O)[C@H](Cc2c[nH]cn2)NC1=O)[C@@H](C)O | – | healthy BALB/c mice | subcutaneous, 0.08 mg/kg, 6 d, single dose | – | haematocrit | 49.6%
O=C(COc1ccc(Cl)cc1)NC12CC(c3nnc([C@H]4C[C@@H](OC(F)(F)F)C4)o3)(C1)C2 | – | healthy human, PBMC | 100 mg once daily, day 15, 24 h post-dose, median, together with: sodium arsenite ex vivo | baseline: baseline | ATF4 protein change | -73.4%
CC(C)[C@H](C(=O)Nc1ccc(C(=O)NO)cc1)c1ccccc1 | volumetric MRI | human, left IAC schwannoma | dose not given, day 23 | – | tumour volume | 16.2 cm3
COc1nnc2ccc(N3CCC(c4ccc(OCCN5CCN(C)C(=O)[C@H]5C)cc4)CC3)nn12 | – | human patients | 30 mg once daily, 2-fold above baseline | – | time above HEXIM1 threshold | 3.1 h
C=CCn1c(=O)c2cnc(Nc3ccc(N4CCN(C)CC4)cc3)nc2n1-c1ccc2c(n1)[C@@](O)(CC)CC2 | – | NOD/SCID mouse, A-427 xenograft | oral, 80 mg/kg once daily, 5 d on 2 d off ×1, day 42 | baseline: vehicle | tumour volume difference | -80.3 ± 4.2 mm3
CC(=O)Oc1cc2c(s1)CCN(C(C(=O)C1CC1)c1ccccc1F)C2 (stereo not shown) | platelet aggregation, light transmission aggregometry | human patients, platelet-rich plasma | dose not given, 1 h, inhibition threshold 90%, together with: TRAP 15 µM | – | patients with inhibition above threshold | 0%
CC1(C)CCC(CN2CCN(c3ccc(C(=O)NS(=O)(=O)c4ccc(NCC5CCOCC5)c([N+](=O)[O-])c4)c(Oc4cnc5[nH]ccc5c4)c3)CC2)=C(c2ccc(Cl)cc2)C1 | cell killing | canine lymph node CD21+ B cells, dog 34 | 24 h | – | EC50 | 338 nM
NC(=O)c1cnc2[nH]ccc2c1N[C@@H]1[C@@H]2CC3C[C@H]1C[C@@](O)(C3)C2 | CD4+ central memory T cells, flow cytometry | Japanese humans, peripheral blood | 200 mg single dose | baseline: baseline | percent change | 1%
C[C@]1(c2nc3c(C(N)=O)cccc3[nH]2)CCCN1 | item: poly(ADP-ribose) | cancer patients, tumour biopsy | 10 mg, 7 h, together with: combination | – | PAR reduction | > 75%
Cn1cc(Nc2nccc(-c3ccc4c(c3)CN(C3COC3)CC[C@H]4NC(=O)c3cn(C(C)(C)C)nn3)n2)cn1 | item: cAMP-mediated signaling | splenic B cells, mouse | in vivo, 30 mg/kg, IgD-activated B cells | baseline: vehicle, positive = activation | pathway activation z-score | 2.45
N#CCC1CCN(c2nc(Nc3ccc(N4CCC(O)CC4)cc3)c3c(=O)[nH]ncc3n2)CC1 | Olink multiplex, item: CD163 | human, serum | 20 mg, day 29 | baseline: baseline | fold change from baseline | -1.2
C[C@@H](O)CCOC(=O)C[C@@H](C)O | – | human | oral drink, dose not given, 180 min post dose, median, all participants | – | plasma NEFA | 0.1 mM
Cc1cc(Nc2ccc(S(F)(F)(F)(F)F)cc2)n2nc(C(C)(F)F)nc2n1 | item: dihydroorotate | female CD-1 mice, pooled urine | oral, 300 mg/kg daily, 8-24 h after dose 10 | – | DHO concentration | 8.4 ± 0.637 µM
CC#CC(=O)N[C@H]1CCCN(c2c(F)cc(C(N)=O)c3[nH]c(C)c(C)c23)C1 | – | human, peripheral blood | 0.3 mg once daily, day 15 | baseline: baseline | B cells | 46.5 % change
COc1ccccc1[C@H](Cn1c(=O)n(C(C)(C)C(=O)O)c(=O)c2c(C)c(-c3ncco3)sc21)OC1CCOCC1 | – | human | 50 mg, post-treatment | – | blood VLDL level | 13 ± 13.4 mg/dL

Repeated from above:
SMILES | test | system | setting | how to read | quantity | result
Cc1ccc([C@@H]2O[C@H](CO)[C@@H](O)[C@H](O)[C@H]2O)cc1Cc1ccc(-c2ccc(F)cc2)s1 | – | Japanese type 2 diabetes patients | 400 mg, day 16 | baseline: day 0 | change in 24-h mean serum insulin | -2.9 µU/mL
N#Cc1ccc2c(-c3ccncc3)c(-c3ccc(F)cc3)nn2c1 | kinase binding, competitor, MIB/MS competition, item: KSP1 | Candida albicans cell lysate | 100 nM | baseline: DMSO | log2 fold change | 0.0623
CCCCC1(CCCC)CN(c2ccccc2)c2cc(SC)c(OCC(=O)N[C@@H](C(=O)NCC(=O)O)c3ccccc3)cc2S(=O)(=O)C1 | item: 7α-hydroxy-4-cholesten-3-one | human, plasma | 2.5 mg once daily, day 14 | – | plasma C4 | 34.5 ng/mL
CC(C)NCC(O)c1ccc(O)c(O)c1 (stereo not shown) | – | ventricular cardiomyocytes, C57BL/6 mouse | dose not given, 0.248 s | – | sarcomere length | 1.6 µm
Cc1n[nH]c2ccc(-c3cc(OC[C@@H](N)Cc4ccccc4)cnc3-c3ccoc3)cc12 | kinase binding, competitor, MIB/MS competition, item: PBS2 | Candida albicans cell lysate | 100 nM | baseline: DMSO | log2 fold change | -0.000679
CN[C@@H]1COc2c(S(=O)(=O)NC(=O)Nc3c4c(cc5c3CCC5)CCC4)cnn2C1 | item: IL-18 | human participants, whole blood ex vivo | 1800 mg single dose, 48 h, IL-18, circulating, adjusted for, together with: LPS/ATP | baseline: baseline | inhibition | 69.6%
C[C@H](Oc1ccc(Br)cc1-c1ccon1)C(=O)O | muscle velocity recovery cycle | human, tibialis anterior muscle | 200 mg once daily, last response peak at 15 Hz, multiple ascending dose | – | difference from placebo | 7.28%
